Experimental data gathered from unrelated publications.
Cell line: MDA-MB-231

The IC50 of `CC(C)C[C@@H](NC(=O)[C@H](N)Cc1ccccc1)C(=O)NCC(=O)N[C@@H](C(=O)N[C@H](CC(C)C)C(=O)N[C@H](C)C(=O)N[C@H](CC(C)C)C(=O)N[C@H](CC(C)C)C(=O)NCC(=O)N[C@H](Cc1ccc(O)cc1)C(=O)N[C@H](CC(C)C)C(=O)N[C@H](C)C(=O)N[C@@H](C(=O)N[C@H](CCCNC(=N)N)C(=O)N1CCC[C@@H]1C(=O)N[C@H](Cc1ccccc1)C(=O)N[C@H](CC(C)C)C(=O)N1CCC[C@@H]1C(=O)N[C@H](CCCCN)C(=O)N[C@H](CCCCN)C(=O)N[C@H](CCCCN)C(=O)N[C@H](CCC(N)=O)C(=O)N[C@H](CCC(N)=O)C(=O)N[C@H](CCCCN)C(N)=O)C(C)C)C(C)C` is reported as 12.8 µM (cell growth or viability, resazurin).
`N.N.O=C([O][Pt]([OH])([Cl])[Cl])c1ccc(P(c2ccccc2)c2ccccc2)cc1.[Cl][Au]` gave an IC50 of 7.07 µM (cell growth or viability, resazurin; 72 h).
For `CCN(CC)C1=[S+][Au-]2([S]1)[c]1ccccc1-c1cccc[c]12`, the IC50 was > 100 µM (cell growth or viability, MTT; 72 h).
With `C=C(CO)[C@H]1Cc2c(ccc3c2O[C@@H]2COc4cc(OC)c(OC)cc4[C@]2(O)C3=O)O1` the IC50 was 27.2 µM (cell growth or viability, MTT; 72 h).
`CN(C)C1=[S+][Au-]2([S]1)[c]1ccccc1-c1cccc[c]12` has an IC50 of 4.07 µM (cell growth or viability, MTT; 72 h).
For `COC(=O)C1CN1S(=O)(=O)c1ccccc1C` (stereo not drawn), the IC50 was 380 µM (cell growth or viability, MTT; 48 h).
With `CC12CC(O)C3C(CCC4(O)CC(O)CC(O)C34CO)C1(O)CCC2C1=CC(=O)OC1` (stereo not drawn) the IC50 was 0.79 µM (cell migration, inhibitor).
For `COC(=O)[C@H](C(C)C)N(C)C(=O)[C@H](C(C)C)N(C)C(=O)[C@@H]1CCCN1C(=O)[C@H](C)N(C)C(=O)OC(C)(C)C`, the IC50 was 56 µM (cell growth or viability, SRB).
For `C[C@H](NC(=O)[C@H](CCCNC(=N)N)NC(=O)[C@H](CCCNC(=N)N)NC(=O)[C@@H]1CCCN1C(=O)CNC(=O)[C@H](CCCNC(=N)N)NC(=O)[C@H](CCCNC(=N)N)NC(=O)CN)C(=O)N[C@@H](CC(N)=O)C(=O)N[C@@H](CCC(N)=O)C(=O)N[C@@H](CC(N)=O)C(=O)NCC(=O)N[C@H](C(=O)N[C@@H](CCCNC(=N)N)C(=O)N[C@@H](CCCNC(=N)N)C(=O)N[C@@H](CCCNC(=N)N)C(=O)N[C@@H](CCCNC(=N)N)C(=O)N[C@@H](CCCNC(=N)N)C(=O)N[C@@H](CCCNC(=N)N)C(=O)N[C@H](C(N)=O)[C@@H](C)O)[C@@H](C)O`, the IC50 was > 100 µM (cell viability, CellTiter-Blue; 24 h, serum-free medium).
With `COc1ccc(C(c2c(C)nn(-c3ccccc3)c2O)c2c(C)nn(-c3ccccc3)c2O)cc1OC` the IC50 was 11.1 µM (cell growth or viability, MTT; 48 h).
`Cc1cc(C)c(-n2c[n+](-c3c(C)cc(C)cc3C)c3c2-c2cccc4cccc-3c24)c(C)c1.[Cl][Pd-]([Cl])[CH2]C=Cc1ccccc1` gave an IC50 of 6 µM (cell growth or viability, MTT; 72 h).
`COC(=O)C1CN1S(=O)(=O)c1c(C)cc(C)cc1C` (stereo not drawn) gave an IC50 of 13 µM (cell growth or viability, MTT; 48 h).
For `C#CCCCC[C@H](C)C[C@@H](C)C(=O)N[C@@H](C)C(=O)N1CCC[C@H]1C(=O)N[C@H](C(=O)N[C@H](C(=O)N[C@H](C(=O)N[C@@H](Cc1ccccc1)C(=O)N1CCC[C@H]1C(=O)N1CCC[C@H]1C(C)=O)C(C)C)C(C)C)C(C)C`, the IC50 was 7 µM (cell growth or viability, SRB).
For `Cc1nn(-c2ccccc2)c(O)c1C(c1ccccc1O)c1c(C)nn(-c2ccccc2)c1O`, the IC50 was 24.2 µM (cell growth or viability, MTT; 48 h).
With `C[C@H](N)[C@@H](CCCCCCCCCCCCCCC(=O)CCCCCCC[C@@H](O)[C@@H](C)N)O[C@@H]1O[C@H](CO)[C@H](O)[C@H](O)[C@H]1O` the IC50 was 5.99 µM (cell growth or viability, resazurin; 96 h).
The IC50 of `C1=CCCC=CCC1.C1=CCCC=CCC1.[Cl][Hg-]([Cl])[Cl].[Cl][Hg-]([Cl])[Cl].[Pt+][c]1ccccc1P(=Nc1ccccc1)(c1ccccc1)c1ccccc1.[Pt+][c]1ccccc1P(=Nc1ccccc1)(c1ccccc1)c1ccccc1` is reported as 0.39 µM (cell growth or viability, MTT; 24 h).
For `Cc1nn(-c2ccccc2)c(O)c1C(c1ccccc1[N+](=O)[O-])c1c(C)nn(-c2ccccc2)c1O`, the IC50 was 39.4 µM (cell growth or viability, MTT; 48 h).
With `O=C1N[C@H]2[C@H](CS[C@H]2CCCCC(=O)OCc2ccnc(-c3cc(COC(=O)CCCC[C@@H]4SC[C@@H]5NC(=O)N[C@@H]54)ccn3)c2)N1.O=S(=O)([O-])C(F)(F)F.[Ru+2].c1cc[cH-]c1.c1ccc(P(c2ccccc2)c2ccccc2)cc1` the IC50 was 11.6 µM (cell growth or viability, MTT; 24 h).
`N=C(N)NCCC[C@H](NC(=O)[C@H](CCCNC(=N)N)NC(=O)[C@@H]1CCCN1C(=O)[C@H](CCCNC(=N)N)NC(=O)[C@H](CCCNC(=N)N)NC(=O)[C@H](CCCNC(=N)N)NC(=O)[C@H](Cc1c[nH]c2ccccc12)NC(=O)[C@H](CCCNC(=N)N)NC(=O)[C@H](CCCNC(=N)N)NC(=O)[C@H](CCCNC(=N)N)NC(=O)[C@H](CCCNC(=N)N)NC(=O)[C@H](CCCNC(=N)N)NC(=O)[C@H](Cc1c[nH]c2ccccc12)NC(=O)[C@H](CCCNC(=N)N)NC(=O)[C@H](CCCNC(=N)N)NC(=O)[C@H](Cc1ccc(O)cc1)NC(=O)[C@H](CCCNC(=N)N)NC(=O)[C@H](CCCNC(=N)N)NC(=O)[C@H](CCCNC(=N)N)NC(=O)[C@@H](N)Cc1c[nH]c2ccccc12)C(N)=O` gave an IC50 of 5.2 µM (cell growth or viability, MTT; 24 h, serum-free).
With `Cc1nn(-c2ccccc2)c(O)c1C(c1ccc(F)cc1)c1c(C)nn(-c2ccccc2)c1O` the IC50 was 18.2 µM (cell growth or viability, MTT; 48 h).
The IC50 of `CCCCCCCC(=O)NCC(=O)N[C@@H](C)C(=O)N[C@@H](CC(C)C)C(=O)N[C@](C)(CC)C(=O)N[C@@H](C)C(=O)N[C@H](C(=O)N[C@@H](CC(C)C)C(=O)OC)[C@@H](C)CC` is reported as 7 µM (cell growth or viability, MTT).

Repeated from above:
`Cc1cc(C)c(-n2c[n+](-c3c(C)cc(C)cc3C)c3c2-c2cccc4cccc-3c24)c(C)c1.[Cl][Pd-]([Cl])[CH2]C=Cc1ccccc1` gave an IC50 of 6 µM (cell growth or viability, MTT; 72 h).
`COC(=O)C1CN1S(=O)(=O)c1c(C)cc(C)cc1C` (stereo not drawn) gave an IC50 of 13 µM (cell growth or viability, MTT; 48 h).
